Measurements gathered from unrelated publications.
Parts stem from different laboratories: compare values within a part only.

Sample 1
Target: Histone acetyltransferase KAT6A, winged helix 2, GST fusion (KAT6A, Homo sapiens, UniProt Q92794, residues 85-181)
Method: protein binding microarray
Molecule type: double-stranded DNA, one strand shown
Matrix: in vitro
Tested at: not given
Notes: 8-mer, flanks averaged, mean of 2 arrays, mostly near background
Baseline: not given
Direction: higher = stronger binding
Residues (chain): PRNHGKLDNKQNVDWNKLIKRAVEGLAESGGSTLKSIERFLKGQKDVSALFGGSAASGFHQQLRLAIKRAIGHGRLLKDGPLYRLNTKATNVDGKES
Oligonucleotide | E-score
GAAGTAAA | 0.107
AGTTTCTA | -0.0389
AATCAGGG | -0.119
CGCGCCGC | 0.246
ATATTTCA | 0.111
AATTGAAT | -0.0499
ATGACGGA | 0.0902
ACAGCCTC | -0.18
GCTTTGCA | 0.0524
CGCTAAAC | 0.155
GGCCAGCA | 0.118
ACTATTAC | -0.0855
AGCCACTG | 0.0999
GGGGGGGA | 0.0151
ACAAATAG | -0.116
TGATCAAA | -0.0716
ACCTGTCA | -0.181

Sample 2
Target: Interferon regulatory factor 7, full length, phosphomimetic (IRF7, Homo sapiens, UniProt Q92985, residues 1-503, S101K/S471D/S472D/S475D/S476D/S477D/S483D/S484D/S487D)
UniProt Q92985, sequence (whole entry, unmodified, looked up): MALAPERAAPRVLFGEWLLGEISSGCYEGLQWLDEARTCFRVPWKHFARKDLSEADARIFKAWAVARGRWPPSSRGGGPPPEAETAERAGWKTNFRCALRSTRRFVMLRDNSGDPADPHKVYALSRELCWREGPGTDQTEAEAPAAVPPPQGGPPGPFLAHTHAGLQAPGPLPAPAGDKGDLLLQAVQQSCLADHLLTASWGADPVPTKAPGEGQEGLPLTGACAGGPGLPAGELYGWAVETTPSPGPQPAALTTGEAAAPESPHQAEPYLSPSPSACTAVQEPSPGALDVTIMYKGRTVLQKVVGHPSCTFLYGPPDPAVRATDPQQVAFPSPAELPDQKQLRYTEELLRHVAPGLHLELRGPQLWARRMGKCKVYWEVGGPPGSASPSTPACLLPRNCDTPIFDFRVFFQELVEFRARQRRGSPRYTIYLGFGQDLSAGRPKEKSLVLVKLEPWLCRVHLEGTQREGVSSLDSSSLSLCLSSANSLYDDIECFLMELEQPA
Method: protein-binding microarray
Molecule type: double-stranded DNA, one strand shown
Matrix: in vitro
Tested at: 250 nM
Notes: 60-bp whole probe
Together with: salmon DNA 0.4 mg/ml
Baseline: random background probes
Direction: higher = stronger binding
Constant ends, left off below: GCCTAGCAC … GTCTTGATTCGCTTGACGCTGCTG
Oligonucleotide | log fluorescence
TTAGGTTCTCTTTTCCTTTAGTGCTAG | 2.86 z-score
CTCCTGCAGCTGCCCTCCTGGTGCTAG | -0.52 z-score
TAAGATTCCAGTTTCGATTAGTGCTAG | 10.5 z-score
GACGATATCTGTCTCGAGACGTGCTAG | 0.204 z-score
TTAGATTTCGGGATTCGATTAGTGCTA | 2.22 z-score
TCATCTTTCCATACTGCACTGTGCTAG | 1.42 z-score
TTAGATATCAGACTGGTTTAGTGCTAG | 0.374 z-score
TTAGGACTGGGATATCGGTTAGTGCTA | 0.057 z-score
TTAGATATCAGTCTCGATTGGTGCTAG | 2.21 z-score
CACGGTATCGGTCTCGGGACGTGCTAG | 0.853 z-score
TTAGGACTTCTACTGCTTTAGTGCTAG | 0.0652 z-score
TTAGGTTTCGACACTGGGGTAGTGCTA | 3.08 z-score
TTAGGACTGGGGACAGGGTTAGTGCTA | -0.4 z-score
TTAGGTTTCGGTTTCAGTTAGTGCTAG | 14.5 z-score
CTGTGTTTCCTTGTACGTCGGTGCTAG | 1.07 z-score
GACGGTTTCGGTACCGGGACGTGCTAG | 5.67 z-score
TTTGAGCTCTGTCTGGGATGGTGCTAG | -0.645 z-score
AGTTCTAAGGATTTCAGTTTGTGCTAG | 0.648 z-score
GACTATATCAGTTTCGAGACGTGCTAG | 4.14 z-score
TTAGGTATCGGTCTCGGTAAGTGCTAG | 1.11 z-score
TCATATCTGTGTTATTAAACTGTGCTA | 0.845 z-score
GACGGACTGGGGACTGGGGCCGTGCTA | -0.831 z-score
ATGGCAAAAAAAAAAGATTTGTGCTAG | -0.7 z-score

Sample 3
Target: RNA binding protein fox-1 homolog 2, RRM domain, GST-SBP tag (RBFOX2, Homo sapiens, UniProt O43251-10, residues 100-194)
Method: RNA Bind-n-Seq
Molecule type: RNA
Matrix: in vitro
Tested at: 365 nM
Notes: natural RNA segment, single round, ends assumed
Baseline: no-protein control
Direction: higher = stronger binding
Constant ends, left off below: GGGAGUUCUACAGUCCGACGAUC … UGGAAUUCUCGGGUGCCAA
Residues (chain): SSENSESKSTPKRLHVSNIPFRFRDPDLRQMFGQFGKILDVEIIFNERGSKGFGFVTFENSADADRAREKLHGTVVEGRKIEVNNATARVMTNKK
Oligonucleotide | RBNS enrichment (R)
CCCACCGCUGAGAGGCUGCAGUGACUUCCCCAAGUACCGUGGUCUGUGCUAAUUUGUUUUCAGAUUAGUCUUCCUGUGGCCUCCAACACUCAGCCAGCCCUCAGAGUGUC | 0.475
CACACCAGAGAGGCCUUAUAGCGGCCCCGGAGCUAAACGCACCAGAGAAAAACCAGUGCUUCCUACUGCACAUGACUGACUCAGCUCCGCCACACGUAGCACCACUGUAA | 0.558
UGUAACAUUUUAUGCUUUUAAAAUCAAUAGAUUCAUCACCUUAGUUUUUUAAAAAAAAUCUAUAAAUAGGGUAAUUGCUGAGGUGUGCGGUUUAUCUUUGAGAUGAUAAA | 0.574
CAAUCUCUGUAUUAUAGCUAUUUGUCUAACAUUACCCCACAUGUAAUAAAUAAAACAAUAUGAGCAUAAUUGCCCCAUAAAGAACUCAUGUCCUGAAUUAAUAAGUCUUU | 0.458
GUAAAUGCUAAAAAUGUUAAAGAACUCGAAGUAUUUCUCUAAAAGGCUGUCAAGAGAAUCUAGGUCUGCUAUGACUUAUUCCAAGUCCUCAGAGUUAAGUCAAGGAGUGU | 0.442
CUCAGCCUGCCUGAAGAGAGGAAACUGGCGAUCUCCCAGGGCUCUCUGGACCAUACGCGGAGGAGUUUUCUGUGUGGUCUCCAGCUCCUCUCCAGACACAGAGACAUGGG | 0.415
ACCUCCAUGUUGUGAAGGCAUCUGUUCAGUGAAGCACUACGAAAAUUUGAAACCAAGGGACAAGACAACCUGCAGCUGACGCUCUGACAUUUCAUGACAGUUUCCUCUUU | 0.445
CGUGCAGGUGGUGGUGGAGCUGAUCCUGCAGGCGCGACCCUGGGACCAGGUCCUGAAUGCCCUGAAGCAUCACUUCCCAGCAGAGUCCAGAACAGUAAGUACCACUGGAC | 0.361
CUGAAGGAUUACUCGGACAUUACCCCGGGCAAUAGGGAACACUUUUAUUCCUAAACACAGUUACAGACACGCAGUCGAGAUCUUUCUUGAUGCUUGGGAUCUCAAGACUG | 0.482
AACCCAAGUCCUUAGAGAAUUUGGGGACCAAUAGAAUAUGUGAUGUGUGAAUUUUCUUUAAAAAACUUAAGGAGUCUUUGCUACCUUCUGCUUGUUGAGUUGUUUUGGCA | 1.64
CUCUUUAAAGGUGUAACAUCUUAAAUUUGGUGAUGAAUAGUGACAACCAAAAGACUAGAUUGUGCCUAAGCACUCCUUCUGGAACAACCGAAUGAUCAGCUGCAUAGCAA | 0.338
AGUAAUGCAAAUAACAAAACUGCAACACUAUUUUUAAAAAGAUAAAUAUCUGAGUUAAAAUUACUGAAUCUUUAUUUUACACCUAAAAAAAUAUGAGAACAAGGUACAUG | 0.565

Sample 4
Target: Ras GTPase-activating protein-binding protein 1, full length (G3BP1, Homo sapiens, UniProt Q13283)
UniProt Q13283, sequence (whole entry, looked up): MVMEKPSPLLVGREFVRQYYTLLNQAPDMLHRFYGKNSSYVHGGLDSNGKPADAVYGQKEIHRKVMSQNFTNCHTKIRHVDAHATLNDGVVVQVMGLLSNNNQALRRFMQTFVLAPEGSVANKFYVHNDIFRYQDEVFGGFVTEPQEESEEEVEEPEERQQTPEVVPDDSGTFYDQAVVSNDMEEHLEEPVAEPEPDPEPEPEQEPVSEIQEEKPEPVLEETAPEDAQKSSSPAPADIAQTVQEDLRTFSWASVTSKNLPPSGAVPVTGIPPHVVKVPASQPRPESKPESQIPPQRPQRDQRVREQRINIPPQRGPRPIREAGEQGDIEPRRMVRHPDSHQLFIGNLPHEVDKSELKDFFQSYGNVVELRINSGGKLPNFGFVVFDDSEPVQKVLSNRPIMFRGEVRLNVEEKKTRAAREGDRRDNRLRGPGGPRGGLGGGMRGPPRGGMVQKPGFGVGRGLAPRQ
Method: RNA Bind-n-Seq
Molecule type: RNA
Matrix: in vitro
Tested at: 200 nM
Notes: whole 134-nt RNA, ends assumed
Together with: 150 mM LiCl
Baseline: input library
Direction: higher = stronger binding
All molecules: 7-deaza-guanosine replaces G
Constant ends, left off below: GGGAGUUCUACAGUCCGACGAUC … UGGAAUUCUCGGGUGUCAAGG
Oligonucleotide | log2 enrichment
CACAGACAACACGCACCCACACAGACACAGAGGGAAGGGGUUGGGAUUGGGACAGGGUGCACAGCAGGGCGGGGUAGGACCCCAGCCCCU | 0.551
GCAGGAAGUAAAAACAAGUGGAAAUGCUUCGGAUAGUGGCAGGGGUGGGGGUUGCUAAGGAAAGGGUGGGAUGGGAGUGGGUAAAGAGUU | -0.227
UGGGAGGUGGAUUUUGUUUAUUUUUUUAGCUCAUUUCCAGGGGUGGGAAUUUUUUUUUAAUAUGCGUCAUGAAUAAAGUUGUUUUUGAAA | -0.266
CCUCAAGUCCUGUGCUACACAUCGUAUGUACCGAAUCGGGGAGGGAGGGAGGAAAGUAUUAUGUUACGCCGUUCGGAUCUGCACUUCCAG | -0.106
AAGACAUUUGUUGUAUUUAUGGUUGUAACUGUACAUGCUUAUCAGGAUGAGACUGAAAGAAGGUAGGGCAAAAAUGGUUGAAUCUAUUUU | -1.17
UCCUGUGCUACACAUCGUAUGUACCGAAUCAAACCCCCCCAAAUUUUUUUAAACCCAAAAAAGUAUUAUGUUACGCCGUUCGGAUCUGCA | 1.53
UUGUUCUGGCAUAAACAUAACAUUGAGAAGUCCCUUGCUGAUCUCCCUAAUUUCACUCCCUUUCCGGAUGAGUGGACAGUGGAAGAUAAA | -0.176
CUCAAGUCCUGUGCUACACAUCGUAUGUACCGAAUCGGCCCGGCCCGGGCCCGGAAAGUAUUAUGUUACGCCGUUCGGAUCUGCACUUCC | -0.442
UAACUUUAGAGGAGUAUCUGAUGGAUAUGGCAGUGGACGUGGAUUUGGGGAUGGCUAUAAUGGGUAUGGAGGAGGACCUGGAGGUGGCAA | -0.132
CCUCAAGUCCUGUGCUACACAUCGUAUGUACCGAAUCGGGAGGGAGGAGGGGAAAGUAUUAUGUUACGCCGUUCGGAUCUGCACUUCCAG | -0.099
GUCCUGUGCUACACAUCGUAUGUACCGAAUCGGAAAAAAGGAAAAAAGGGAAAAAAGGGAAAGUAUUAUGUUACGCCGUUCGGAUCUGCA | -0.635

For quick reference, copied from above (sample 4):
Oligonucleotide | log2 enrichment
GCAGGAAGUAAAAACAAGUGGAAAUGCUUCGGAUAGUGGCAGGGGUGGGGGUUGCUAAGGAAAGGGUGGGAUGGGAGUGGGUAAAGAGUU | -0.227
CUCAAGUCCUGUGCUACACAUCGUAUGUACCGAAUCGGCCCGGCCCGGGCCCGGAAAGUAUUAUGUUACGCCGUUCGGAUCUGCACUUCC | -0.442
UGGGAGGUGGAUUUUGUUUAUUUUUUUAGCUCAUUUCCAGGGGUGGGAAUUUUUUUUUAAUAUGCGUCAUGAAUAAAGUUGUUUUUGAAA | -0.266
UAACUUUAGAGGAGUAUCUGAUGGAUAUGGCAGUGGACGUGGAUUUGGGGAUGGCUAUAAUGGGUAUGGAGGAGGACCUGGAGGUGGCAA | -0.132
